Results of several laboratories.
Each line is one published result; not all experiments were run side by side. Values joined by “and” are separate records of one study, mostly repeats; a detail may differ.
Target: Homeodomain-interacting protein kinase 1 (HIPK1, Homo sapiens, UniProt Q86Z02)

NC(=O)C[C@H]1CCc2sc3ncnc(O[C@H]4CC[C@H](N5CCOCC5)CC4)c3c21 — inhibition (enzyme activity, inhibitor; 10 µM): 3%
CNC(=O)C1CCN(c2cc(C)c(F)cc2NC(=O)c2ccc(-c3cc(O)ccc3C)c(C)c2)CC1 — remaining binding (binding, competition with immobilised ligand; 1 µM): 100%
Cc1cnc2nc1Nc1cccc(c1)COC/C=C/COCc1cc(ccc1OCCN1CCOCC1)N2 — remaining binding (binding; 0.1 µM): 85%
COc1c(OCCCN2CCOCC2)ccc2c1N=C(NC(=O)c1cnc(N)nc1)N1CCN=C21 — remaining activity (kinase activity, inhibitor; 1 µM; relative to: untreated control): 98%
COCC12C(=O)NC3C4(C(OC)CC1O)C1CC5(O)C(OC)C(O)C(OC(C)=O)(C1C5OC(=O)c1ccccc1)C3(O)C(OC)C24 (stereo not drawn) — remaining activity (kinase activity, inhibitor, ProQinase kinase profiling; 25 µM; relative to: control): 80% and 100%
CCN1CCN(Cc2ccc(C(=O)Nc3ccc(C)c(NCc4cnc5[nH]ccc5c4OC)c3)cc2C(F)(F)F)CC1 — remaining binding (binding, competition with immobilised ligand; 1 µM): 62%
COc1cc(-n2cc3cc(F)cc(C(N)=O)c3n2)cc(Cl)c1C1CC(O)(CCO)Cc2ccccc21 (stereo not drawn) — inhibition (enzyme activity, inhibitor; 10 µM): 0.46%
COc1cc(Nc2nc(C)cc(-c3cnn4nc(OC)ccc34)n2)cc(C(F)(F)F)c1 — remaining binding (binding, competition with immobilised ligand; 1 µM): 70%
CNC1C[S+]2CC[S+]3CC[S+](C1)[Ru-4]321([N]=C=S)[n]2c3ccc(OC)cc3c3c4c(c5cc(F)c[n+]1c5c32)C(=O)NC4=O (stereo not drawn) — remaining binding (KinomeScan; 0.1 µM; relative to: untreated): 89%
C=CC(=O)Nc1cccc(-c2cnc3[nH]cc(C(=O)NC(C)(C)C)c3n2)c1 — inhibition (enzyme activity, inhibitor; 0.1 µM): 45%
C=CC(=O)N1CCCC(n2c(=O)c3ncccc3n(Cc3ccc(Oc4ccccc4)cc3)c2=O)C1 (stereo not drawn) — remaining binding (cell-free assay, competition with immobilised ligand; 1 µM): 88%
Cc1ccc(-c2c(/C=C(\C#N)C(=O)NC(C)C)n(CCCO)c3ncnc(N)c23)cc1 — remaining binding (cell-free assay, competition with immobilised ligand; 1 µM): 100%
Nc1ncc2c(n1)-c1c([nH]c3ccc(C4=CCOCC4)cc13)CCC2 — remaining binding (binding, competition with immobilised ligand; 1 µM): 41%
Cc1cccc(O[C@H]2CCC[C@@H](C(C)CNCc3ccncc3)C2)c1 (relative stereo) — inhibition (enzyme activity, inhibitor; 10 µM): -6%
COc1c(Cl)cccc1Nc1c(-c2ccncc2C#C[C@@]2(C)CCCN2C(=O)/C=C/CN(C)C)[nH]c2c1C(=O)NCC2 — remaining binding (binding, competition with immobilised ligand; 3 µM): 97%

For quick reference, copied from above:
C=CC(=O)Nc1cccc(-c2cnc3[nH]cc(C(=O)NC(C)(C)C)c3n2)c1 — inhibition (enzyme activity, inhibitor; 0.1 µM): 45%
COCC12C(=O)NC3C4(C(OC)CC1O)C1CC5(O)C(OC)C(O)C(OC(C)=O)(C1C5OC(=O)c1ccccc1)C3(O)C(OC)C24 (stereo not drawn) — remaining activity (kinase activity, inhibitor, ProQinase kinase profiling; 25 µM; relative to: control): 80% and 100%
